Published values pooled from the literature.
Parts stem from different laboratories: compare values within a part only.
UniProt Q8NEB9, sequence (whole entry, looked up): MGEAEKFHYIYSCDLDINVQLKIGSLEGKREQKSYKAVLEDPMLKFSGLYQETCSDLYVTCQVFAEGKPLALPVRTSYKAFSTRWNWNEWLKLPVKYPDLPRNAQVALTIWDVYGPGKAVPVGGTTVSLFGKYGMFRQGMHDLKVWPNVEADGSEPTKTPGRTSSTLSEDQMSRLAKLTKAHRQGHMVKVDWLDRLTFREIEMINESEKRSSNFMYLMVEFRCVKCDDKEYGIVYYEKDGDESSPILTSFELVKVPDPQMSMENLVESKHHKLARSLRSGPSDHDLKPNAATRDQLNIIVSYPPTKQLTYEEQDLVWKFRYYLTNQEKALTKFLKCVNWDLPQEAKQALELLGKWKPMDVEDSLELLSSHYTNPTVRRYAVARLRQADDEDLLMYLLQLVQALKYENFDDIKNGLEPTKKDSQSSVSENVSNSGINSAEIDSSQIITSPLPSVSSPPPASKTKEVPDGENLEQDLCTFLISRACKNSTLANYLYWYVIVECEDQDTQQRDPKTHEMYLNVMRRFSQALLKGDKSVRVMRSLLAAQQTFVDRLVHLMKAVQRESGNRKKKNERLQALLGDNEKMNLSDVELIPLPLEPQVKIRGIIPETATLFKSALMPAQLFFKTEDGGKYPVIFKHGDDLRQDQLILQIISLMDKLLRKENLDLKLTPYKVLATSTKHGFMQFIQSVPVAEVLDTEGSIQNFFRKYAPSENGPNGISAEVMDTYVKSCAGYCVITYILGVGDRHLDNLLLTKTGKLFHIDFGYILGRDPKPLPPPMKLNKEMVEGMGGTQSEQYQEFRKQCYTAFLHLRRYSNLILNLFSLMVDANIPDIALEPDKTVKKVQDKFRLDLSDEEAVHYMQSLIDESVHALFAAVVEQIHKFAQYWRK
UniProt Q9H422, sequence (whole entry, looked up): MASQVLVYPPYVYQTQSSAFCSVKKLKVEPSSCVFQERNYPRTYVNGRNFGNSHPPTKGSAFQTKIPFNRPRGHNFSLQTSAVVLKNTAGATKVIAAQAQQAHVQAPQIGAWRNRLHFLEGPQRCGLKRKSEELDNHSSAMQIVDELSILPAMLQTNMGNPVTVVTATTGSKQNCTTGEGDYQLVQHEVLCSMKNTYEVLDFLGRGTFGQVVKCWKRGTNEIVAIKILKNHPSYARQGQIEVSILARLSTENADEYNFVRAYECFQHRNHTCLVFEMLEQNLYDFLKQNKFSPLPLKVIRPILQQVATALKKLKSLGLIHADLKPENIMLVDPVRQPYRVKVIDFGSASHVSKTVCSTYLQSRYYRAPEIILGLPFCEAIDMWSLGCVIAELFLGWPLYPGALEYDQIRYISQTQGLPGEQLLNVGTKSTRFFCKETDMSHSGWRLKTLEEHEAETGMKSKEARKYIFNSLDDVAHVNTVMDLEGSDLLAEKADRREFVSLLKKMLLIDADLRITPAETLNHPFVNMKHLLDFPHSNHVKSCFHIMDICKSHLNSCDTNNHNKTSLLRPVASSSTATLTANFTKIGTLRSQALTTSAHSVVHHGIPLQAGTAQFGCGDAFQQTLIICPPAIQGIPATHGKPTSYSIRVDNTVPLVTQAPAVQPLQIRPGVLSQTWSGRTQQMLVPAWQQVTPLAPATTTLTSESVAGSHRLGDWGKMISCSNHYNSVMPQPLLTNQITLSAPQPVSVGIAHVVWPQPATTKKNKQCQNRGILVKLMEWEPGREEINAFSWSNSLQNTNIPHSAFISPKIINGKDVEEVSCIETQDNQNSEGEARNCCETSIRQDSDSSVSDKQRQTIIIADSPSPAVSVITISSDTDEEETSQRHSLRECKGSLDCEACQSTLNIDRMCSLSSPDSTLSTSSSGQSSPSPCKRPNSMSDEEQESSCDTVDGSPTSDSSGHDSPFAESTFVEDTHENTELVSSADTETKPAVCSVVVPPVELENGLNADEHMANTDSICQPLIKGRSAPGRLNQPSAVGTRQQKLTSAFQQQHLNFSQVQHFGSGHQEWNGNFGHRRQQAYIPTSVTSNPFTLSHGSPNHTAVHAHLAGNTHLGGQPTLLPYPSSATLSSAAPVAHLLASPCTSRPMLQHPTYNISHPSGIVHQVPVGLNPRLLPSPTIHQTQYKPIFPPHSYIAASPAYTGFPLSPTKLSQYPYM
UniProt O14976, sequence (whole entry, looked up): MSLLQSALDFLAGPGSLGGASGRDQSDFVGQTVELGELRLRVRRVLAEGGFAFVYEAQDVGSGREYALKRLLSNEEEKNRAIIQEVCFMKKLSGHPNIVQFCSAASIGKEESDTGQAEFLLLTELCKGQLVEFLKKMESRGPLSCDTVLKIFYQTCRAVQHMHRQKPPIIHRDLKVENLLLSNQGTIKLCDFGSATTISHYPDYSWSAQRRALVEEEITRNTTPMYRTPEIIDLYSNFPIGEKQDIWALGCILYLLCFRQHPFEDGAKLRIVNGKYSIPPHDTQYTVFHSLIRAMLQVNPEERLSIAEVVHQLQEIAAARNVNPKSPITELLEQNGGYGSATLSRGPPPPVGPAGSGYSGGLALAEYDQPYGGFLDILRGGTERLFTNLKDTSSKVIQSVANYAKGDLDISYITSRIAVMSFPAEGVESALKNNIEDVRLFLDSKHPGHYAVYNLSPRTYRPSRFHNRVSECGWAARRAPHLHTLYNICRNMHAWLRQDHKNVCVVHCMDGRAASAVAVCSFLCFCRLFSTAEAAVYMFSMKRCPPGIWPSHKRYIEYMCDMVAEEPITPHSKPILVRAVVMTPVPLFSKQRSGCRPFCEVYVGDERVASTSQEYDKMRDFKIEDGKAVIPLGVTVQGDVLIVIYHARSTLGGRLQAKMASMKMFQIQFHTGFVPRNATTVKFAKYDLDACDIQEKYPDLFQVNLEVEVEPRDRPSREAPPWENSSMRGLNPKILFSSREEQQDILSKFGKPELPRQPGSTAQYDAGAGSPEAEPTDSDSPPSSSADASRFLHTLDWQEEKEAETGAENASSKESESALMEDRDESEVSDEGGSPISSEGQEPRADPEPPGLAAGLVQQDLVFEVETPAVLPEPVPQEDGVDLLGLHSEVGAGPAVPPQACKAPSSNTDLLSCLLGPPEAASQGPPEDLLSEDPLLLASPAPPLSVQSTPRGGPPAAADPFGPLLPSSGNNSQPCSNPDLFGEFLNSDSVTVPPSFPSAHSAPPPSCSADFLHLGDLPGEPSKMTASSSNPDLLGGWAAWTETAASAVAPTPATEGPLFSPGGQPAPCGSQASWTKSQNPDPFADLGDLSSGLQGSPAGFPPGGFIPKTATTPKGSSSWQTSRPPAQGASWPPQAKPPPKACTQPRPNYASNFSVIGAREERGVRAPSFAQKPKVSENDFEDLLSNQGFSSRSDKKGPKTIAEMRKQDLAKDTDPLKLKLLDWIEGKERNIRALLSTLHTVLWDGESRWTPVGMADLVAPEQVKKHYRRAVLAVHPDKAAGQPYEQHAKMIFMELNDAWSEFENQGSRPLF
UniProt Q96Q40, sequence (whole entry, looked up): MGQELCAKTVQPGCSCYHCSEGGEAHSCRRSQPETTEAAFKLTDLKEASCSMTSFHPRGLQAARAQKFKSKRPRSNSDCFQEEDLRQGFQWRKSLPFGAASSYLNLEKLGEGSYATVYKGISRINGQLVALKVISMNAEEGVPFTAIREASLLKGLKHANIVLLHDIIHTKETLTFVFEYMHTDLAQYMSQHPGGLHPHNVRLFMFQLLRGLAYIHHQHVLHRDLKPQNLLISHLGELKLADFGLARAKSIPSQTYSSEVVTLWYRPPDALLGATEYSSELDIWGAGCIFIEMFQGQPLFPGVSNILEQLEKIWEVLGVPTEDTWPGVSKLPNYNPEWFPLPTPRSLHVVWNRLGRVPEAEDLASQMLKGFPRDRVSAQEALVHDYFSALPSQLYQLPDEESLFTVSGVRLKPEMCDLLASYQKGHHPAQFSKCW

Block 1
Host: human
Sample: microsomes or S9
Tested at: 2 µM
Time: 0.5 h
Compound	remaining compound
CCS(=O)(=O)N1CCN(c2ccc(Cl)c(Cl)c2)CC1	87%
N=c1c2cnn(-c3ccccc3)c2[nH]c(=O)n1-c1ccccc1	> 100%
Fc1ccccc1-c1cn2c3ccccc3nc2n1CCN1CCCCC1	0.228%
O=C(CCS(=O)(=O)c1ccccc1)N(Cc1ccccc1)c1nc2ccccc2s1	23.6%
CCCN1CCN(C(=O)C2=C(C)C(=O)OC23CCN(S(=O)(=O)CC)CC3)CC1	> 100%
CC(C)(C)Nc1ncc(-c2cnn(C3CCN(C(=O)OC(C)(C)C)CC3)c2)cc1C(=O)O	65.3%
C[C@@H]1CN(c2ccncc2F)C[C@@]1(O)C1CCC1	19.9%
CC(C)(C)c1ccc(S(=O)(=O)n2ccnc2)cc1	> 99%
COc1cc2c(cc1Nc1ncc(Cl)c(Nc3ccc(C4CCN(C(C)=O)CC4)cc3OC)n1)CCCNC2	> 100%
Cc1cc(C)c2nc(-c3ccc(Cl)s3)cc(C(=O)O)c2c1	> 100%

Block 2
Structure (SMILES): CN(C)c1ncnc(-c2ccc3nc(Nc4cc(CN5CCN(C(=O)CC(F)(F)F)CC5)ccn4)[nH]c3c2)c1Cl
Effect on: cell-free assay
Method: competition with immobilised ligand
Tested at: 1 µM
target	remaining binding [%]
Cyclin-G-associated kinase (GAK, Homo sapiens, UniProt O14976)	82
Homeodomain-interacting protein kinase 3 (HIPK3, Homo sapiens, UniProt Q9H422)	100
Ephrin type-A receptor 1 (EPHA1, Homo sapiens, UniProt P21709)	100
Proto-oncogene tyrosine-protein kinase receptor Ret (RET, Homo sapiens, UniProt P07949, M918T)	100
Aurora kinase A (AURKA, Homo sapiens, UniProt O14965)	84
Serine/threonine-protein kinase ICK (CILK1, Homo sapiens, UniProt Q9UPZ9)	100
Phosphatidylinositol 3-kinase catalytic subunit type 3 (PIK3C3, Homo sapiens, UniProt Q8NEB9)	100
Cyclin-dependent kinase 2 (CDK2, Homo sapiens, UniProt P24941)	100
Tyrosine-protein kinase ABL1, phosphorylated (ABL1, Homo sapiens, UniProt P00519)	51
Tyrosine-protein kinase Tec (TEC, Homo sapiens, UniProt P42680)	100
Calcium/calmodulin-dependent protein kinase kinase 2 (CAMKK2, Homo sapiens, UniProt Q96RR4)	88
Cyclin-dependent kinase 15 (CDK15, Homo sapiens, UniProt Q96Q40)	100

Block 3
Target: Epidermal growth factor receptor (EGFR, Homo sapiens, UniProt P00533)
Effect on: enzyme activity
Action: inhibitor
Tested at: 0.5 µM
Baseline: control
Structure (SMILES)	remaining activity
O=C1NC(=O)c2c1c1c3ccccc3[nH]c1c1[nH]c3cc(Br)ccc3c21	100%
c1ccc2c(-c3ccncc3)c[nH]c2c1	97.3%
O=c1c(-c2ccc(F)cc2)c(-c2ccncc2)[nH]n1-c1ccc(Cl)cc1	57.7%
O=C1c2ccccc2-c2nc3nnnn3nc21	37%
CC(C)(C)c1nc2c3cc[nH]c(=O)c3c3cc(F)ccc3c2[nH]1	94.8%
CCN(CC)CCCCN1c2ccccc2Oc2ccc(Cl)cc21	99.2%
O=Nc1c(-c2c(O)[nH]c3cc(Br)ccc23)[nH]c2ccccc12	89%
O=C1NC(=O)/C(=C/c2ccc3c(c2)OC(F)(F)O3)S1	85.1%
O=C1Nc2ccc(Br)cc2/C1=C/c1cc2c([nH]1)CCCC2	87.4%
O=C1Nc2ccccc2/C1=C\c1c(Cl)[nH]c2ccccc12	97.5%
COc1cccc(-c2cc(=O)c3ccccc3o2)c1N	81.2%
CNc1cc2c(Nc3cccc(Br)c3)ncnc2cn1	1.99%
Cc1ccc(S(=O)(=O)/C=C/C#N)cc1	97.5%
CN(C)S(=O)(=O)c1ccc2c(c1)/C(=C/c1cc3c([nH]1)CCCC3)C(=O)N2	93.4%
NC(=O)c1cccc(-c2cc(Nc3ccc(OC(F)(F)F)cc3)ncn2)c1	96.6%

Block 4
Target: Diamine acetyltransferase 1 (Homo sapiens, UniProt P21673)
Action: inhibitor
Tested at: 10 µM
Baseline: control
Construct (P21673 1-171): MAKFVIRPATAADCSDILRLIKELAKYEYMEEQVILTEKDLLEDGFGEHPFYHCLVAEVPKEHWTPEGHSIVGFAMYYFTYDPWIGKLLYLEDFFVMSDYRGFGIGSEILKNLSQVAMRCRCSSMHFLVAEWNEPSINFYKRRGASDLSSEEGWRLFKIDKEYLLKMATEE
SMILES	remaining activity [%]
CC1=CC(=O)CC(C)(C)C1(O)/C=C/C(C)=C\C(=O)O (racemic)	85
C=CCc1ccc(OC(C)=O)c(OC)c1	87.2
O=c1c(O)c(-c2ccc(O)c(O)c2)oc2cc(O)cc(O)c12	97.3

Excerpt of the above (block 1):
Compound	remaining compound
CCS(=O)(=O)N1CCN(c2ccc(Cl)c(Cl)c2)CC1	87%
N=c1c2cnn(-c3ccccc3)c2[nH]c(=O)n1-c1ccccc1	> 100%
Fc1ccccc1-c1cn2c3ccccc3nc2n1CCN1CCCCC1	0.228%
O=C(CCS(=O)(=O)c1ccccc1)N(Cc1ccccc1)c1nc2ccccc2s1	23.6%
CCCN1CCN(C(=O)C2=C(C)C(=O)OC23CCN(S(=O)(=O)CC)CC3)CC1	> 100%
